Experimental data pooled from the literature.
Numbered parts are unrelated; each lists some results of a single study.

Study 1
Target: Interferon regulatory factor 7, full length, phosphomimetic (IRF7, Homo sapiens, UniProt Q92985, residues 1-503, S471D/S472D/S475D/S476D/S477D/S483D/S484D/S487D)
Method: protein-binding microarray
Molecule type: double-stranded DNA, one strand shown
Medium: in vitro
Concentration: 2200 nM top
Notes: 60-bp whole probe
Added: salmon DNA 0.4 mg/ml
Baseline: random background probes
Reading: higher = stronger binding
Endpoint: fitted relative affinity
All sequences stand within: GCCTAGCAC … GTCTTGATTCGCTTGACGCTGCTG
Target sequence (chain): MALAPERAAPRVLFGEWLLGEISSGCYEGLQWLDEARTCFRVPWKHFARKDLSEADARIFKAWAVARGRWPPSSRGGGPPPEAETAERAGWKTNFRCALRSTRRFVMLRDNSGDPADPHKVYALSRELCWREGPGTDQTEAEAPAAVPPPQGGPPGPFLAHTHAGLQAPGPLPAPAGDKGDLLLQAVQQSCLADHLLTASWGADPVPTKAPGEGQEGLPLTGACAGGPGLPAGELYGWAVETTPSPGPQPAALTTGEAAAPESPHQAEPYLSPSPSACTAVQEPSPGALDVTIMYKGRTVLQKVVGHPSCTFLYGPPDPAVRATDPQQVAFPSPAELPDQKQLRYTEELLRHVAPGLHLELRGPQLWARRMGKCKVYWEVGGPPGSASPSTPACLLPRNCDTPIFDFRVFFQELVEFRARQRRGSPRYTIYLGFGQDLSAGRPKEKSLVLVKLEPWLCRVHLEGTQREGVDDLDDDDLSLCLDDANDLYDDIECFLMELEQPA
Sequence = GACGAACTGTGTATCGAGACGTGCTAG; result = 0.183 z-score
Sequence = TTAGGACTGGACTCTCGGTTAGTGCTA; result = -0.258 z-score
Sequence = GACGGTTTCGGGACTGGGCACGTGCTA; result = 3.37 z-score
Sequence = TTGTTTTACAATTTGCTTTAGTGCTAG; result = 2.11 z-score
Sequence = TTTGCTTTCCTGATGGTCTTGTGCTAG; result = 3.06 z-score
Sequence = TTAGGTTTCCTTCTCCTTCAGTGCTAG; result = 2.47 z-score
Sequence = CCACTTTCCATTTCTGTTTTTGTGCTA; result = 11.2 z-score
Sequence = AAGTTTCTCCTTTCCAAATAGTGCTAG; result = 4.28 z-score
Sequence = AACGGACTGCTACTGCTGACGTGCTAG; result = -0.226 z-score

Study 2
Target: RING finger protein unkempt homolog, zinc fingers 1-6, GST-SBP tag (UNK, Homo sapiens, UniProt Q9C0B0, residues 30-357)
UniProt Q9C0B0, sequence (30-357, looked up): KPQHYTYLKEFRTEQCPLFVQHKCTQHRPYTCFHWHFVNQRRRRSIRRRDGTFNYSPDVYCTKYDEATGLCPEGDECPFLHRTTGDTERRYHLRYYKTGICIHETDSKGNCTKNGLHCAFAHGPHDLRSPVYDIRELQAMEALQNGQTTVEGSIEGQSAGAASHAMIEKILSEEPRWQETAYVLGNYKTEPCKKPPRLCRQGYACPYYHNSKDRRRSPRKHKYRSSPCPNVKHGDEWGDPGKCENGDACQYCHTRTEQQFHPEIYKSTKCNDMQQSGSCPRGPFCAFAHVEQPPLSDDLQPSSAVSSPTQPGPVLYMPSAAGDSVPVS
Method: RNA Bind-n-Seq
Molecule type: RNA
Medium: in vitro
Concentration: not given
Notes: RNA with constant flanks, ends assumed
Baseline: input RNA pool
Reading: higher = stronger binding
Endpoint: bound/input enrichment
All sequences stand within: GGGAGUUCUACAGUCCGACGAUC … CAACAGAGGAUUGAGCAUCA
Sequence = CAUACCAGCUGAAGAGCGACAAGCCGCUGGCAGCCGCGGAUCUCACCGCCGCUCAGGGUUUUCCGAACUUCAGCCAUAAAAAUGGGCAGAAUUUUCCUUGAUCAUAUCGGUGGUACCCGU; result = 0.113 ratio
Sequence = GGCUUCUCCAACUGUAGAGGUACAGAUUGUCUUAACCUGUUCUUUUCUGUACAGACUUAAAAUUUCCCGUGGCUUUUAUUUUUCUUUGUAUUUUAAUUUUCCUACAAAGUCCUUUUUGGA; result = 1.88 ratio
Sequence = CGUGCUUAUGCUCUUCUAUGAGAGAGAUGAAUUGGGGAGAAUUGUCUCCAUUUUACCGAUCCGUUUCUUUCUAAAUUAUGACCAAAAAUAUUUUGCUAUUUCUUUCUUUGUAUAUGGACA; result = 0.537 ratio
Sequence = CCUGAACUUUUAGCUUUCAAGUUGUGGCUGUUUUUUGUUUUUGUUUUUGUUUUUGUUUUCUUCCGAAUUUUUCCCUGUUUCCCACCUUCUCUUCCCCUGUUGCCAAGGUCUAACUCAUGG; result = 1.08 ratio
Sequence = AGAUCCAUUGCCGUAGAUCCCAGCACAAGCAAGUCGGCAGACUCGAGGUGGCAAAAAGAAGCCGCGAUGCUGAGGAAGGAGACCGAGGACCUUCAACAACAAUGCCUUUAUCUAAAUGAA; result = 0.146 ratio
Sequence = CCCUUUUCUAAAAUUGAGAUAACAUAGUUCUUGAAUAUUUUGCUGUAUUUAUAGCCUCAUAUUCCGGCAUUUAUGCACUGAUGUGUCUUCAAUAAAAAUCUUGUACAGAUAUAUUUUUAU; result = 0.66 ratio
Sequence = GGAGCAACUCAAGGAUUGAGGACUGGUUUUACAAAUAUACCAAGUAGAUAUGGAACUAAUAACCGAAUUGGACAACCAAGACCAUGAUAGACUCUAACUUAUUUUUAUAAGGAAUAUUGA; result = 1.23 ratio
Sequence = AGAUACUUGCAAAAUAGAUCUCGAAUUCAGGUGUGGCUGUAUGAACAAGUGAAUAUGCGGACCGAAGGUUGUAUUAUUGGCUUUGAUGAGUACAUGAACCUCGUAUUAGAUGAUGCAGAA; result = 0.587 ratio

Study 3
Target: Sal-like protein 4, full length isoform B (SALL4, Homo sapiens, UniProt Q9UJQ4-2, residues 1-616)
Method: universal PBM
Molecule type: double-stranded DNA, one strand shown
Medium: in vitro
Concentration: not given
Notes: 8-mer, flanks averaged, mean of replicates
Reading: higher = stronger binding
Endpoint: E-score
Sequence = AACTTTTA; result = 0.24
Sequence = CACTCATC; result = 0.0538
Sequence = AGGAGTCA; result = 0.0684
Sequence = ATTCTTTC; result = 0.156
Sequence = CTAGTCCA; result = -0.0713
Sequence = ACTTTCGG; result = -0.107
Sequence = CCCAAGAA; result = 0.0157
Sequence = AATTGTAA; result = 0.318
Sequence = TACTCGGA; result = 0.0369
Sequence = AAGGAATT; result = 0.127
Sequence = AAACTACC; result = 0.162
Sequence = CAGGCATA; result = 0.0154
Sequence = CTCGCACC; result = -0.25
Sequence = CCCTCCGG; result = -0.361
Sequence = TAAAACAA; result = 0.364
Sequence = CCCGGCAA; result = -0.216

Study 4
Target: Fragile X messenger ribonucleoprotein 1, C-terminal low-complexity region (Fmr1, Mus musculus, UniProt P35922)
Method: RNA Bind-n-Seq
Molecule type: RNA
Medium: in vitro
Concentration: 200 nM
Notes: whole 134-nt RNA, ends assumed
Added: 150 mM KCl
Baseline: input library
Reading: higher = stronger binding
Endpoint: log2 enrichment
All sequences stand within: GGGAGUUCUACAGUCCGACGAUC … UGGAAUUCUCGGGUGUCAAGG
Sequence = UCAAGUCCUGUGCUACACAUCGUAUGUACCGAAUCGGCCCGGGCCCGGGGCCCGGAAAGUAUUAUGUUACGCCGUUCGGAUCUGCACUUC; result = -0.552
Sequence = CCUGUGCUACACAUCGUAUGUACCGAAUCGGGGUUUUUUUGGGGUUUGGGGUUUUUGGGGAAAGUAUUAUGUUACGCCGUUCGGAUCUGC; result = 0.499
Sequence = UAACUUUAGAGGAGGAUCUGAUGGAUAUGGCAGUGGACGUGGAUUUGGGGAUGGCUAUAAUGGGUAUUGAGGAGGACCUGGAGGUGGCAA; result = 0.269
Sequence = UGGGAGGUGGAUUUUGUUUAUUUUAUUAGCUCAUUUCCAGGGGUGGGAAUUUUUUUUUAAUAUGUGUCAUGAAUAAAGUUGUUUUUGAAA; result = 0.213
Sequence = AAGUCCUGUGCUACACAUCGUAUGUACCGAAUCGGCCCCGGGCCCCGGGGCCCCGGGAAAGUAUUAUGUUACGCCGUUCGGAUCUGCACU; result = -0.435

Further values, each from its own experiment
Substance = PhoQ, residues 284 288 289 292 302 303 ALASRC; target = PhoP, residues 12 14 15 18 19 QWHVF (Escherichia coli, UniProt P23836); assay = Sort-seq, item: YFP reporter; test system = E. coli; setting = PhoQ-PhoP variant library, added: 10 µM Mg2+; how to read = baseline: high Mg2+ state, higher = stronger signaling; endpoint = fold induction; result = 1.56
